Literature values, collected from citations in different studies.
Lines come from different studies, so protocols differ.

| SMILES | test system | setting | scale | half-life |
| --- | --- | --- | --- | --- |
| O=C1CCC(N2Cc3ccccc3C2=O)C(=O)N1 (stereo not shown) | human plasma | – | – | 1.98 h |
| CN1CCN(c2cc(-c3ccccc3CO)c(N(C)C(=O)C(C)(C)c3cc(C(F)(F)F)cc(C(F)(F)F)c3)cn2)CC1 | healthy volunteers, plasma | oral, 450 mg, single dose, netupitant alone | – | 67.9 h |
| C[C@@H](O)[C@H](NC(=O)OP(=O)(O)OC[C@H]1O[C@@H](n2cnc3c(N)ncnc32)[C@H](O)[C@@H]1O)C(=O)O | – | free compound, no metal ion | – | 0.267 h |
| COc1cc2c(NC3CCN(C)CC3)nc(N3CCCN(C)CC3)nc2cc1OCc1ccccc1 | rat plasma | plasma stability | – | > 4 h |
| O=C([O-])CN1CCOCCN(CC(=O)[O-])Cc2cccc(n2)C1.[Mn+2] | aqueous solution | pH 7.4, 25 °C, added: Cu(II) | – | 1620 h |
| CC[C@H](C)[C@H](NC(=O)CNC(=O)CNC(=O)c1ccc2c(c1)C(=O)OC21c2ccc(O)cc2Oc2cc(O)ccc21)C(=O)N[C@@H](Cc1ccc(O)cc1)C(=O)N[C@@H](C)C(=O)N[C@@H](C)C(=O)N1CCC[C@H]1C(=O)N(C)[C@@H](Cc1ccccc1)C(=O)N[C@@H](CCCCN)C(=O)N[C@@H](CCCCN)C(=O)N[C@@H](CCCCN)C(=O)N[C@@H](C)C(N)=O | – | added: cellular proteases | relative to: parent peptide | 15 fold |
| Cc1ccccc1-c1cc(N2CC[N+](C)([O-])CC2)ncc1N(C)C(=O)C(C)(C)c1cc(C(F)(F)F)cc(C(F)(F)F)c1 | healthy volunteers, plasma | oral, dose not given, netupitant-palonosetron, fed | – | 43 h |
| Cc1cn(C2C=CC(COP(=O)(O)OP(=O)(O)OP(=O)(O)O)O2)c(=O)[nH]c1=O (stereo not shown) | CEM/0 cell extract | – | – | 0.633 h |
| Cc1ccccc1-c1cc(N2CCNCC2)ncc1N(C)C(=O)C(C)(C)c1cc(C(F)(F)F)cc(C(F)(F)F)c1 | healthy volunteers, plasma | oral, 450 mg, single dose, netupitant alone | – | 69.6 h |
| CC(C)(C)C1=CC(=NNC(=O)c2ccncc2)C=C(C(C)(C)C)C1=O | human liver microsomes | – | – | 0.15 h |
| CCc1nc(-c2ccc(-c3ccc(CCC(N)(CO)COP(=O)(O)O)cc3)cc2)co1 (stereo not shown) | – | – | – | ~11 h |
| O=C([O-])CN(CC(=O)[O-])c1ccccc1N(CC(=O)[O-])CC(=O)[O-].[Mn+2] | aqueous solution | pH 7.4, 25 °C, added: Cu(II) | – | 19.1 h |
| CC[C@H](C)[C@H](NC(=O)[C@H](Cc1ccc(O)cc1)NC(=O)[C@@H](NC(=O)[C@H](CCCNC(=N)N)NC(=O)[C@@H](N)CC(=O)O)C(C)C)C(=O)N[C@@H](Cc1c[nH]cn1)C(=O)N1CCC[C@H]1C(=O)O | circulation | ACE blockade | – | increased |
